{"data": "Measurements of several laboratories", "note": "A part holds a random share of what one study measured. Positions count from the first letter of the parent shown."}
{"data": "Series 1", "target": "TAR DNA-binding protein 43, full length, His tag (TARDBP, Homo sapiens, UniProt Q13148, residues 1-414)", "technique": "RNA Bind-n-Seq", "molecule type": "RNA", "medium": "in vitro", "tested at": "20 nM", "notes": "6-mer, flanks averaged, single round", "added": "150 mM LiCl", "baseline": "input library", "direction": "higher = stronger binding"}
{"Strand": "GGCGUC", "6-mer enrichment (R)": 0.964}
{"Strand": "GUAAUG", "6-mer enrichment (R)": 1.06}
{"Strand": "GCGACA", "6-mer enrichment (R)": 0.89}
{"Strand": "GAUGCG", "6-mer enrichment (R)": 1.08}
{"Strand": "ACGUCG", "6-mer enrichment (R)": 0.965}
{"Strand": "UCACGU", "6-mer enrichment (R)": 0.88}
{"Strand": "UGCUGC", "6-mer enrichment (R)": 1.01}
{"Strand": "GGCGCA", "6-mer enrichment (R)": 1.02}
{"data": "Series 2", "target": "RING finger protein unkempt homolog, zinc fingers 1-6, GST-SBP tag (UNK, Homo sapiens, UniProt Q9C0B0, residues 30-357)", "technique": "RNA Bind-n-Seq", "molecule type": "RNA", "medium": "in vitro", "tested at": "not given", "notes": "RNA with constant flanks, human-mouse chimeric sites, ends assumed", "baseline": "input RNA pool", "direction": "higher = stronger binding", "sequence of UniProt Q9C0B0 (30-357, looked up)": "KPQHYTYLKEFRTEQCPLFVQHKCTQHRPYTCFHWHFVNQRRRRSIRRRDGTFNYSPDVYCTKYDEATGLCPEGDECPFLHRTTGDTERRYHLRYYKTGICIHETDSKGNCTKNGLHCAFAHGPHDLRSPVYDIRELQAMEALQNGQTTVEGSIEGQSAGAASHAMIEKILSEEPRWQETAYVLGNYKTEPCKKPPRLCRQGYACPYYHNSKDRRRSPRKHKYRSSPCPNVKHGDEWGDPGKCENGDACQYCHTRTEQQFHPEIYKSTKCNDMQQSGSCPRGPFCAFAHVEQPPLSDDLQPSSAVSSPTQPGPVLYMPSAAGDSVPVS"}
{"Strand": "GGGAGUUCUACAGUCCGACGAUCAGAUUCCCCCUCCUGAGACCUCCUCCGAAGUUGGAGUCUCUUACAGAUGCCUCAUCCCCUGUUAGCGUUUUAGUUUGGACCACACAACCUUGGACAAUUCCAGCCAACCAGGCAAUUUGCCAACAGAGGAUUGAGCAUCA", "bound/input enrichment [ratio]": 2.16}
{"Strand": "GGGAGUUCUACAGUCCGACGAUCGGAAGUACAAUGAUGGAGAUUGAUGGUGACAAAGGCAAGCAGGGCGGUCCCACCUACUACAUAGACACCAAUGCCCUGCGUGUUCCGAGGGAGAACAUGGAGGCCAUCUCACCACUCAAGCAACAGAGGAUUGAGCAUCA", "bound/input enrichment [ratio]": 0.239}
{"Strand": "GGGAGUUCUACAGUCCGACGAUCCGCUGGCCCAAGCUGAUGGACUCUGAUCUUGAUCUCUUCUCAGGCACGUGUGCCUUCUCUUAGUCCCUGUUUUCGGGAUGUUAUGAAUCUCAGUACUGUGGUUUGAAAGCACCAGCUUUGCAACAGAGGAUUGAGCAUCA", "bound/input enrichment [ratio]": 0.171}
{"Strand": "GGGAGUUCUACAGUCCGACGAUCGCCACCAAUUCCAGCCAACAUGACCCUUGCAGCCUAUAAAGAGAAGAUGAAGGAGCUCCCGCUGGUGUCCUUGUUCUGCUCCUGCUUCCUGGCCGAUCCCCUGAAUAAGUCGUCCUACAACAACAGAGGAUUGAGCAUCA", "bound/input enrichment [ratio]": 0.337}
{"Strand": "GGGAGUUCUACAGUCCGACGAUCGCUCUUGGGAAUGUAAUCAGCGCCUUGGGGGACAAGAGCAAGAGGGCCACCCAUGUCCCUUACAGAGACUCUAAGCUAACAAGACUAUUGCAGGAUUCCCUUGGGGGUAACAGCCAAACCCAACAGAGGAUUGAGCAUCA", "bound/input enrichment [ratio]": 0.155}
{"Strand": "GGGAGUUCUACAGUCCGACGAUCCUCAGAGAUGUGGCAUAUCAGUAUGUGAAAAAGGGGGCUCGAAUUUAUGUGGAAGGGAAAGUGGACUAUGGUGAAUACAUGGAUAAAAACAAUGUGAGGCGGCAAGCAACAACAAUCAUACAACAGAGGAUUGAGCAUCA", "bound/input enrichment [ratio]": 0.362}
{"Strand": "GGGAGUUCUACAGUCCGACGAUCUGUAGUUUCUUGAUUUAUCAUUUUUCUCUUUUCUUUCUUUCCUUUAGGAAAAGCCUAAAGAUUAGGUUGUAAGAAAAACAGAAGCCAGCCAUGUUUCACCUGUGUUACAGGUAUUUCGUCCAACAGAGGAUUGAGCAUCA", "bound/input enrichment [ratio]": 0.255}
{"Strand": "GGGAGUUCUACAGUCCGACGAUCUCUUAACUUAUUCAUUUAACUUAUUUUUAGCACUUAGGCAAUAUUGUUAGUCUUAGACAAUAGCUCACAUUUUUUGAGAAGCAUGCCCUCCCUGUCCAUUUGUCUUAUAACAUGACCCAGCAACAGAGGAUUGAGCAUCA", "bound/input enrichment [ratio]": 411}
{"data": "Series 3", "target": "RNA binding protein fox-1 homolog 2, RRM domain, GST-SBP tag (RBFOX2, Homo sapiens, UniProt O43251-10, residues 100-194)", "technique": "RNA Bind-n-Seq", "molecule type": "RNA", "medium": "in vitro", "tested at": "365 nM", "notes": "natural RNA segment, single round, ends assumed", "baseline": "no-protein control", "direction": "higher = stronger binding", "Construct (chain)": "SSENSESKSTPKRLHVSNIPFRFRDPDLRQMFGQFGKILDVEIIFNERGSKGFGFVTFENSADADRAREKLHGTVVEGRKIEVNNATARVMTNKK"}
{"Strand": "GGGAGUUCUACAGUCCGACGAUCAACCACUACAAAGAGAUAACACUGUACGGGGACUGCCAGAUCUUCUGUCCUAGGGCAGUUUUAAUCAAUGUUUUCUAGGGAUUAGGAAGAAGUGUAUAAUAUUGUAAAACUGGAAUUCUCGGGUGCCAA", "RBNS enrichment (R)": 0.593}
{"Strand": "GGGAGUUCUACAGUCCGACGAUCUCGUCGGUCUACCCCACUACCUCCAGGGUUUUGCUUUGUCCUUUUGUGACCGUUAGUCUCUAAGCUUUACCAGGAGCAGCCUGGGUUCAGCCAGUCAGUGACUGGUGGGUUGGAAUUCUCGGGUGCCAA", "RBNS enrichment (R)": 0.2}
{"Strand": "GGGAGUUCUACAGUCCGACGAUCUGUAGUUUUAAUUAUGCUGCAAUGUAUAAUCUGGUGUGUUAUUUAAACAGCACUAGUACUGUACACUGGUUUUUUUCCCUUGUGUUUGCUGUUGCACACUGAUUGCUGAGUGGAAUUCUCGGGUGCCAA", "RBNS enrichment (R)": 0.88}
{"Strand": "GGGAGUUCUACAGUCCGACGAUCGGUGGGAAAUGGUCUCCUUCCUCAGCGUUGUGUUUGGGUUACUGGUGAGGCCAGCUCACAGAGUGACAUCAUGGUCACCAGUACAUGUCGCUGGAGUAAAAUCUUGCCUUUGGAAUUCUCGGGUGCCAA", "RBNS enrichment (R)": 0.507}
{"Strand": "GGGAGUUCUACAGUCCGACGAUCAUUAUAAACAAUAUAUUCAAAAUGGGCAAAUUUUAUUUUCAAAUGCAGUGUAGAGCUAGAUUAAAAGCAACUCUUUGCCACCUACUCUGCCCUUUUGGCAAAGUUACCUUUGGAAUUCUCGGGUGCCAA", "RBNS enrichment (R)": 0.537}
{"Strand": "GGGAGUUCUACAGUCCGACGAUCGAACACUAGUAAUUCUGGUUUUUCUUUCUAACUGCUUUACUGUUUCAAGGGUAUUCUUUUAAAACUCUGAUUUCAAAGGAUCAGUUGAAUUUAUACUUUAGUUAUGGGUGUGGAAUUCUCGGGUGCCAA", "RBNS enrichment (R)": 0.297}
{"Strand": "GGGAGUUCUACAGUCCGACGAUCUUUUUAUAUUUUUAACUCUUUAUUCUUGGAUGUAUAAAGUGAACUUUUUGGCUUCUGUAAGUAUGCUCUAUGCACCUCUAAUGUUUUAUCAUGUAUUUAUAUGUUGUACAUGGAAUUCUCGGGUGCCAA", "RBNS enrichment (R)": 0.82}
{"Strand": "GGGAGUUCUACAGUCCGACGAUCCAUGGUGCCUGCCCAGAGUCGAGCAGGGUCCCUGGUUAGGAUGACUGAGGAAACCAUGUUCAGAAGAGAAUAAAUGGACCGCCUUCAGGCAAGGGGGGAGCACUGCCUUCUGGAAUUCUCGGGUGCCAA", "RBNS enrichment (R)": 0.287}
{"data": "Single results of other studies", "starting sequence": "viral docking peptide; YKVKRRLVFGADD"}
{"Change": "F9V", "target": "CCNB3, cyclin fold, Cln2 fusion (human)", "test": "yeast growth competition, sequencing", "test system": "yeast", "conditions": "strong parent motif", "how to read": "baseline: not given, higher = stronger binding", "quantity": "normalised enrichment score", "value": 0.0298}
{"note": "Repeated from above (series 1):"}
{"Strand": "UCACGU", "6-mer enrichment (R)": 0.88}
{"Strand": "UGCUGC", "6-mer enrichment (R)": 1.01}
{"Strand": "GGCGCA", "6-mer enrichment (R)": 1.02}
